Measurements gathered from unrelated publications.
Compare with care: the assays were run in different laboratories. “And” joins repeats or separate records; there may be more than shown. ± gives the spread as reported.
KCNH2: Voltage-gated inwardly rectifying potassium channel KCNH2 (KCNH2, Homo sapiens, UniProt Q12809)
UniProt Q12809, sequence (whole entry, unmodified, looked up): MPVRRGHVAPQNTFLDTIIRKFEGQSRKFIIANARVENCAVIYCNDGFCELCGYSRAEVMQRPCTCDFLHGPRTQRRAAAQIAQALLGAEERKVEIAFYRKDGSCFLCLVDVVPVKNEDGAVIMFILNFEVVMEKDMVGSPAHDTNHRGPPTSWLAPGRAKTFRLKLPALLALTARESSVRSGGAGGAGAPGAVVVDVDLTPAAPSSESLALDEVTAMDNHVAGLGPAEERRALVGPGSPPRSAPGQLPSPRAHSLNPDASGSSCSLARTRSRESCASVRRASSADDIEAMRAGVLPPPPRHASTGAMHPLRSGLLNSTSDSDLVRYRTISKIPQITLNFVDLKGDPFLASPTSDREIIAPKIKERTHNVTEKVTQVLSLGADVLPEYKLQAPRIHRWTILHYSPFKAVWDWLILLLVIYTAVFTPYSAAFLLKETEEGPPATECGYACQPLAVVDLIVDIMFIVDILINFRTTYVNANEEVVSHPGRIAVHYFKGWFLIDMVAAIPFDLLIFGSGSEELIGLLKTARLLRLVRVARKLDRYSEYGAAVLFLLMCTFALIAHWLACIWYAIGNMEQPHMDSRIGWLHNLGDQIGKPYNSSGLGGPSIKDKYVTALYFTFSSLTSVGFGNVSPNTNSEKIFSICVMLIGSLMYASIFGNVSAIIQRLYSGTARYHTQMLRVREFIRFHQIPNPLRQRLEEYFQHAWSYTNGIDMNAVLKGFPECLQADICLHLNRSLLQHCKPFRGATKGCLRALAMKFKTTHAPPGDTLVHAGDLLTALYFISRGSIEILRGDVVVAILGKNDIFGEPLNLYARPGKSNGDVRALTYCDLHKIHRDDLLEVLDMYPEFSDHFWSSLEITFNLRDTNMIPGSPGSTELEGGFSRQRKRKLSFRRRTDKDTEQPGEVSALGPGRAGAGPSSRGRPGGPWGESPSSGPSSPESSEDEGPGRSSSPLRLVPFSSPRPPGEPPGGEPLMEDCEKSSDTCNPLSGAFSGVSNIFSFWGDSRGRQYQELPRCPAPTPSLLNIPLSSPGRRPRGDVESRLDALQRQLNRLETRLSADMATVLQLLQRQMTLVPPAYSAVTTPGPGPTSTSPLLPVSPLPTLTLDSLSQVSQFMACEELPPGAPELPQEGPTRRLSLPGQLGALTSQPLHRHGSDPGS

With O=C(C1CCN(c2nnnn2-c2ccccc2)CC1)N1CCCc2ccccc21 the IC50 was 10.6 µM (KCNH2; ligand displacement, FP; 4 h, cell membranes).
The IC50 of CCC(=O)N(C)c1ccc(Cl)c(Cl)c1 is reported as greater than 100 µM (KCNH2; ion current, inhibitor, patch clamp; HEK293).
For NC(=O)c1c(F)ccc(OCc2nc3cc(Cl)cnc3s2)c1F, the IC50 was greater than 10 µM (KCNH2; ion current, inhibitor, patch clamp).
With CCN(c1nc(N[C@H](CC(N)=O)C(=O)NC)nc(N2CCN(c3ccccc3C#N)CC2)n1)C1CCCCC1 the IC50 was greater than 100 µM (KCNH2; ion current, inhibitor).
N#Cc1ccc(Nc2ncc(CO)c(Oc3c(F)cc(-c4ccc(C#N)cc4)cc3F)n2)cc1 has an IC50 of greater than 40 µM (KCNH2; ion current, inhibitor, patch clamp; CHO).
Clc1ccc2c(c1)nc(N1CC3CNCC3C1)n2Cc1ccccc1 (stereo not shown) gave an IC50 of 0.02 µM (KCNH2; ion current, inhibitor).
C[C@H]1CN(C(=O)c2cn(-c3ccnc(N)n3)c3cc(C#CC4(O)CCCCC4)ccc23)CCN1 has an IC50 of greater than 30 µM (KCNH2).
With CCNCC#CCNc1ccnc2cc(Cl)ccc12 the IC50 was 5.3 µM (KCNH2; binding, inhibitor, fluorescence polarization; 4 h).
C=CC(=O)Nc1cccc(Cn2ncc3cnc(Nc4cnn(CCOC)c4)nc32)c1 gave an IC50 of greater than 30 µM (KCNH2; ion current, inhibitor, patch clamp).
The IC50 of Cc1ccc(O)c(C)c1OCC(C)N (stereo not shown) is reported as 436 ± 130 µM (KCNH2 (Homo sapiens, UniProt Q12809, F656A); inhibitor; CHO).
The IC50 of CC(=O)c1cnc(N)nc1N1CC[C@H]1c1nn2ccc(Cl)c2c(=O)n1-c1ccccc1 is reported as 2.3 to 2.9 µM (KCNH2; potassium current, electrophysiology).
The IC50 of O=C(c1cccc(S(=O)(=O)N2CCc3ccccc3C2)c1)N1CCC(OCc2ccccc2)CC1 is reported as 7.33 µM (KCNH2; ion current, inhibitor).
Cc1cc(/C=C/C#N)cc(C)c1Oc1nc(NC2CCN(Cc3ccc(S(C)(=O)=O)cc3)CC2)nc2ncccc12 gave an IC50 of 1.48 µM (KCNH2; ion current, inhibitor, manual patch clamp; CHO-hERG).
For Cn1cc(-c2cc(N3CCCS3(=O)=O)ccc2N[C@H]2CC[C@H](C)CC2)c2cc[nH]c2c1=O, the IC50 was greater than 40 µM (KCNH2; ion current, inhibitor).
For O=C(COc1cc2ccccc2cc1C(=O)NCc1ccccc1)Nc1ccccc1N1CCCC1=O, the IC50 was 13.3 µM (KCNH2; ion current, inhibitor).
CCN(CC)CC#CCNc1ccnc2cc(Cl)ccc12 has an IC50 of 7 µM (KCNH2; binding, inhibitor, fluorescence polarization; 4 h).
Cc1cccc(C)c1NC(=O)CC(C)NCc1cccc2ccccc12 (stereo not shown) has an IC50 of 6 µM and 5.9 µM (KCNH2; ion current, inhibitor, patch clamp; tsA201; pH 7.4).
CN(Cc1nc2ccccc2s1)C(=O)c1cccc(S(=O)(=O)N2CCc3ccccc3C2)c1 has an IC50 of 8.43 µM (KCNH2; ion current, inhibitor).
The IC50 of [2H]c1c(NS(C)(=O)=O)c([2H])c2c(C(=O)c3ccc(OCCCN(CCCC)CCCC)cc3)c(CCCC)oc2c1[2H] is reported as 0.17 µM (KCNH2; tail potassium current, blocker, whole-cell patch clamp; HEK293FT transfected; co-expressed KCNE1).

Excerpt of the above:
C[C@H]1CN(C(=O)c2cn(-c3ccnc(N)n3)c3cc(C#CC4(O)CCCCC4)ccc23)CCN1 has an IC50 of greater than 30 µM (KCNH2).
With CCNCC#CCNc1ccnc2cc(Cl)ccc12 the IC50 was 5.3 µM (KCNH2; binding, inhibitor, fluorescence polarization; 4 h).
